# Measurements of several laboratories.
# Numbered parts are unrelated; each lists some results of a single study.

# Sample 1 — technique: protein-binding microarray; form: double-stranded DNA, one strand shown; medium: in vitro; concentration: 250 nM; notes: 60-bp whole probe; added: salmon DNA 0.4 mg/ml; baseline: random background probes; direction: higher = stronger binding; shared flanks, not repeated: GCCTAGCAC … GTCTTGATTCGCTTGACGCTGCTG
# Target: Interferon regulatory factor 5, full length, phosphomimetic (IRF5, Homo sapiens, UniProt Q13568-2, residues 1-514, K96S/S451D/S453D/S456D/S462D)
Oligonucleotide,log fluorescence [z-score]
GACGGTATCGGGTTTCGGGATGTGCTA,5.11
TTAGGACTGGGACTGGGTGAGTGCTAG,-0.685
ATGCCTTTCGTCAAGAAGACGTGCTAG,2.59
TCAGAAATCAACTTTTTTACTGTGCTA,0.907
TTGAACTTCGGCCTCTAGGTGTGCTAG,0.0332
GACGAACTGCGTATCGAGACGTGCTAG,0.449
ATTGTTTCCTCTTTCACTGCGTGCTAG,3.19
TTAGATATCGGGACTGCATTAGTGCTA,1.12
TTAGATTTCAGACTGCATTAGTGCTAG,0.58
TTAGGTTTCTTACTGCTTTAGTGCTAG,0.936
TTTTTCTCCTATTTAAGACAGTGCTAG,2.1
TTAGGTATCGGGACTGAGTTAGTGCTA,1.7
GGCCTCTCTGTTTTCCTGTTGTGCTAG,0.163
TCATTTTTTTCTAACTAACTGTGCTAG,1.25
GCCGAACTGAGTCTCGAGACGTGCTAG,-0.398
GTCCTCCTCTCTCTTTCCACGTGCTAG,0.33
TTGGATATCGGGTTTCGATTAGTGCTA,7.22
GACGGTCTCGGTATTGGGACGTGCTAG,0.146

# Sample 2 — technique: RNA Bind-n-Seq; form: RNA; medium: in vitro; concentration: 365 nM; baseline: no-protein control; direction: higher = stronger binding
# Target: RNA binding protein fox-1 homolog 2, RRM domain, GST-SBP tag (RBFOX2, Homo sapiens, UniProt O43251-10, residues 100-194)
# Notes: natural RNA segment, single round, ends assumed
# Construct (chain): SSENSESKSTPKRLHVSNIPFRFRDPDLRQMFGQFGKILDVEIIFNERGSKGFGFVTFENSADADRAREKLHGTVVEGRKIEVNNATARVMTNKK
Oligonucleotide,RBNS enrichment (R)
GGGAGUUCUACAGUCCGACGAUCCCCACCCCACGACCUUGGCCCGAGCCCCUCCGUGAGGAACACAAUCUCAAUCGUUGCUGAAUCCUUUCAUAUCCUAAUAGGAAUUAACCUCCAAAUAAAACAUGACUGGUUGGAAUUCUCGGGUGCCAA,0.285
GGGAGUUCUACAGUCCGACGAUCUUGCAGCCCACGGUGCACAUCUGCGCACACCCUCACUGAGGACUGAGUGCUGUUGGUACACGGAGCCCCCUCCUCCAUACCCAUUGCUGCACCACCACUGUGGAUUGCACUGGAAUUCUCGGGUGCCAA,0.357
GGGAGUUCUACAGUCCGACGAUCUUUUUUUUUUUUUAAAAAAAACAAAAAACAAACGACCAUUUCUCUAAGCCAAGUUUCUUUUAGAGACAUUUUAACUUAUUUAGCUGAACUCUAGAUUUUUUGGUAAACUAUGGAAUUCUCGGGUGCCAA,0.578
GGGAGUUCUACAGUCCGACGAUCAAAAUUGAUGAUAUCUUAGGGUCAGAAUUGCCCUUUUUUUUUAUUUUGAAUGGGAAGUUCUCACUAAAACAAUCCUGAGAUUUCUUAAUUUCAUGGUUCUUUAAAUAUUAUGGAAUUCUCGGGUGCCAA,0.755
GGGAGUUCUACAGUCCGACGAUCUCAGCACUCUGCAGAGCACAGGCUGAGCUGCUCUGAGUACGGGGUGGCCUGAGUGUGGAGGACAAAGGAGGUCCAUGUCCUGCUUGCUGGAGACAGCUGGCCAGAAUCGUUGGAAUUCUCGGGUGCCAA,0.521
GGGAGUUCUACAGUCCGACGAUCCACGGGUCCUGCUCCCGCGAUGUGGAAGUGUCACACGGCACCUGUACAAAAAGACUGGCUAACCCCUCUUCCUAUUACCUUGAUCUCUUCCCCCAACUUCCUAACACUUAUGGAAUUCUCGGGUGCCAA,0.583
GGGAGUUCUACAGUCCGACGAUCCUCUGAGGGCAUCUGAAUGCAUAUAGUGUGUGUGCAUGAACACAGCACUGGACAGUACACUCUGGUGUACACACUUGCGCACACAUAUACACACACAAUAAUUUUUUAAAUGGAAUUCUCGGGUGCCAA,0.62
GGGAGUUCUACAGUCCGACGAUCAUUACCUUCCUAGUGGGAACUUUUUCUACUUUACCUACAAGUUCUAUAUAUGUAGAAAUGAAUAAAUAUAUAUUUAAGUACAGUUUUCAUGAGGAAGUUUUAAAAGACCAUGGAAUUCUCGGGUGCCAA,0.481
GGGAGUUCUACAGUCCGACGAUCUGUAGAAAACAAAAUGGAUAAAAUCUGAUAUGUAUUGUUUGGGAUCCUAUUGAACCAUGUUUGUGGCUAUUAAAACUCUUUUAACAGUCUGGGCUGGGUCCGGUGGCUCAUGGAAUUCUCGGGUGCCAA,4.2

# Sample 3 — technique: RNA Bind-n-Seq; form: RNA; medium: in vitro; concentration: not given; notes: RNA with constant flanks, ends assumed; baseline: input RNA pool; direction: higher = stronger binding
# Target: RING finger protein unkempt homolog, zinc fingers 1-6, GST-SBP tag (UNK, Homo sapiens, UniProt Q9C0B0, residues 30-357)
# Chain of UniProt Q9C0B0 (30-357, looked up): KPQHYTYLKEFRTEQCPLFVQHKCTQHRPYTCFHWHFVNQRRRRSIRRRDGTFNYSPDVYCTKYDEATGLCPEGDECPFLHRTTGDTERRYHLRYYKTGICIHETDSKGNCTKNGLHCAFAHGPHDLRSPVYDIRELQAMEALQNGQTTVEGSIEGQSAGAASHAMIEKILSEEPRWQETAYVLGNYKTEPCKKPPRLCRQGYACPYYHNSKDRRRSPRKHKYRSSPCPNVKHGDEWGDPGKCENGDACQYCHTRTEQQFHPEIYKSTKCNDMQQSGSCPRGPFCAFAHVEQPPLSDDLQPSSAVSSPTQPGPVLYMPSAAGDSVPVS
Oligonucleotide,bound/input enrichment
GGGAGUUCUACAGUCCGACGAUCCUUAUGGCUGCAGAAACAGGAAGUGGCAAAACUGGUGCUUUUAGUAUUCCAGUUAUCCAGACCGUUUAUGAAACUCUGAAAGACCAACAGGAAGGCAAAAAAGGAAAAACAACAAUUAAACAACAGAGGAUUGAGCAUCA,0.351 ratio
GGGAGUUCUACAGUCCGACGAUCGAGUCUGACUCUUAACCCUUUUGAGAAUUGCUCUGAAUUUUGUUCUCAGGCAUUAUACAGUCCGUAAUUAAACUUUAAAUGCCAUUACUACUUGUUUUUUCAUAUCCCAAGAAUAAGAACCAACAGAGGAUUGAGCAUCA,0.145 ratio
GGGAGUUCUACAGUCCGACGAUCGGCAGCCGUUUCUUGCCGGCCCUGGGAGUCUGCUAUGGCGUUCCCUCACCUACAACAGCCCCGUUUCCUUCUGGCUAGCCUGAAAGCUGACUCUAUAAAUAAGCCCUUUGCACAACGUUGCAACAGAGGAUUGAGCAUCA,0.237 ratio
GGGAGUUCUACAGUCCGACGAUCUUGGAAAAUGGAUAUACCUUAUUUGAUUAUGAUGUUGGACUGAAUGAUAUAAUUCAGCUGCCCGUUCGCCCAGACCCUGAUCAUCUUCCUGGCACAUCUACACAGAUUGAGGCUAAACCCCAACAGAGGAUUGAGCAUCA,0.145 ratio
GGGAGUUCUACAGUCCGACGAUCUUUCAGGAUUCUUCUGGCACCAAGGCGAACUCUUCUUGGUACUUCUGACAAUACAGAUCUUCCGGACAAAUUUACCCGCUGAAUGCUUUGGGGCAGGAGGAAAGUAAAACCUUGGAAGCACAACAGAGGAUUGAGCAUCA,0.119 ratio
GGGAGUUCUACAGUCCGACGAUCCUUCUGUUUCAUACAAUAUCCUUUCAUACUUCUGCUAAUCUGCUAAUGUAAUUUGGAAGACCGCUGUCACCAGGAUAACCUGUAAUGGGCAAGGAGCCACAGAGAAGAAAACAUUUCUUUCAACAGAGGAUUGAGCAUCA,0.113 ratio
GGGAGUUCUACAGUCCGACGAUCACAAUACUUGAACAUUUUAAUCUUUUGGAAUAUUGUCUUUCUUUGUUAUAACUAUUCAUUUUCCGCUUUUGUCUCCAGUGCAUGAUCUCAUAUUUUUGCUUUUAUUUUUAGUAUAAGAACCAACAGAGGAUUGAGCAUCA,1.97 ratio
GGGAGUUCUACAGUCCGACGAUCGGAAAAAACAGCCUAUCUGUACUUUCACCGAAAAUUGGAAAUUUGCUAUUUCUUUCCUACUCCGAUGUAAAAGGUAAUCACUUUGAAAUCCUCCCUCCUGAACUGGGUGACUGUCGGGCUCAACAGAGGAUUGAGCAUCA,0.494 ratio
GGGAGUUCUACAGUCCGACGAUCCUUCCGUUUAUUGUUUCACAUAGGUUGUCUAAUACCUUGAGCUUAGAUAUUCAUGAAAAUCACCGCCUUGCACUUCUAGGAAAGAAGAAAUCAAGCAGCUUAACAUUACCACCCAAAUACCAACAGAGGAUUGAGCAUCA,0.622 ratio
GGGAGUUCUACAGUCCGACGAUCUCUGAUAAACUUAACAAUGGGGGAUCUGAUAGCCCUUGUGACUUGAAAUCACCUAAUGCAUUCCGUGAAAAUCGCCAGGACUAUUUUGAUUAUGAGUCAACCAAUCCAUUUACAGCAAAACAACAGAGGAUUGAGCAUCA,0.225 ratio
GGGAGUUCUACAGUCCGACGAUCCAUUAAUUUUAAAUUAAGUAAACUAAAUAAAUAAAAAUAAACUUUUUUAAAGAUGUGUGGUUCCGGAUGGGCUUUAAGAAAGUGAGUCUACCAAAUGCCAGUUAAAGAGCAAGUUAGGGGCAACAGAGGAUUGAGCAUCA,1.52 ratio

# Sample 4 — technique: universal PBM; form: double-stranded DNA, one strand shown; medium: in vitro; concentration: 600 nM; direction: higher = stronger binding
# Target: Sal-like protein 4, full length isoform A (SALL4, Homo sapiens, UniProt Q9UJQ4, residues 1-1053)
# Chain of UniProt Q9UJQ4 (whole entry, looked up): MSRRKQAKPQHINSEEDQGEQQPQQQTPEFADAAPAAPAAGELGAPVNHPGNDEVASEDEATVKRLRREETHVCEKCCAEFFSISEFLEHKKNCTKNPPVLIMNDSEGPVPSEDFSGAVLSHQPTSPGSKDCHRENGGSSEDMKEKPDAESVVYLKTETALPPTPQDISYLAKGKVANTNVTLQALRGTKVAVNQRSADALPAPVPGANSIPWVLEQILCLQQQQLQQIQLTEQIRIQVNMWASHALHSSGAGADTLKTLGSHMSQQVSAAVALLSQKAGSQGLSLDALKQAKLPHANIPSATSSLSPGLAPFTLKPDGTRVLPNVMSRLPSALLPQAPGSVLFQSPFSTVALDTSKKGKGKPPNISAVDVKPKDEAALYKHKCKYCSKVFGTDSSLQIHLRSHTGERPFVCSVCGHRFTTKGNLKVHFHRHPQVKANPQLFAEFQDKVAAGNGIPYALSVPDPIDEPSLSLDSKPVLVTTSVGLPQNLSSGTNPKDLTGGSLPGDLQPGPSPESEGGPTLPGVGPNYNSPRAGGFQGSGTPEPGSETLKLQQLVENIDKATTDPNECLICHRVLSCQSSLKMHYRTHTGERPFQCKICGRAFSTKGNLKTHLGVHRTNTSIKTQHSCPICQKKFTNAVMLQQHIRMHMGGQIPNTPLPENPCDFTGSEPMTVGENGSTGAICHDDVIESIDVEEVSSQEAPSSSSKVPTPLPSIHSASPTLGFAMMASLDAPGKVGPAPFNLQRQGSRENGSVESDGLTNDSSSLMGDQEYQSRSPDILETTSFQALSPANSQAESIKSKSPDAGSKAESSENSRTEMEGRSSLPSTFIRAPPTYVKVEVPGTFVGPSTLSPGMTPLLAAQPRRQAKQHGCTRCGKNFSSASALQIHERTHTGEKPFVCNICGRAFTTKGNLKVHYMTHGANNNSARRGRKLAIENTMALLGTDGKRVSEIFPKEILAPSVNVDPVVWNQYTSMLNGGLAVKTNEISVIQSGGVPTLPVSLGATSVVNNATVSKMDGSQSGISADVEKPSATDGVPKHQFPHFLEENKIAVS
# Notes: 8-mer, flanks averaged, mean of replicates
Oligonucleotide,E-score
GCTTTGCA,-0.201
GAAGGTCA,-0.0522
CTTAGTGA,-0.0889
ACCAGAGA,0.0504
AATCGCTA,0.0726
AATCAAAG,0.0464
GCGCGGCA,-0.255
CAAACCGG,-0.162
ACTGATTG,-0.0348
ATACGCAT,0.162
GGTACGAA,0.0474
CACTCGCG,-0.165
AGCTGAGC,-0.329
GCGTAGGA,-0.196
GCACAGAA,-0.0194
CGCAACTC,-0.0133
CATCTTCC,0.0831
GTCCGAGA,-0.0617
CAACAGCC,-0.128
GACAGGGC,-0.283
ATGAACTA,0.235
AGGTGTTG,-0.0311
ATATTCCC,0.199
ATGCCGTA,-0.0453
AGCGGCTG,-0.239
